Assay results collected from several papers.
Lines come from different studies, so protocols differ. Numbers after ± are the reported error.

Structure (SMILES) = COc1ccc(CC(=O)N2CCN(CC(OCc3ccc4ccccc4c3)c3ccc(Cl)cc3Cl)CC2)cc1 (stereo not drawn); cell line = MDA-MB-468; assay = cell growth or viability, MTT; conditions = 24 h; IC50 = 21.1 µM
Structure (SMILES) = CC(=O)N[C@H](C(=O)N[C@@H](CCCNC(=N)N)C(=O)N[C@@H](CCCCN)C(=O)N[C@@H](CCCNC(=N)N)C(=O)N[C@]1(C)CCCC=CCCC[C@@](C)(C(=O)N[C@@H](CC(C)C)C(=O)N[C@@H](CC(C)C)C(=O)N[C@@H](CCC(N)=O)C(=O)N[C@@H](CCC(=O)O)C(=O)N[C@@H](CCCNC(=N)N)C(=O)N[C@@H](CCC(=O)O)C(=O)N[C@@H](CC(C)C)C(=O)N[C@H](C(=O)N[C@@H](CCC(=O)O)C(N)=O)C(C)C)NC(=O)[C@H](CCCNC(=N)N)NC(=O)[C@H](CC(C)C)NC1=O)C(C)C; cell line = SK-N-MC (no EGFR or ErbB2-4); assay = cell viability, ATP luminescence; conditions = 18 h; IC50 = > 100 µM
Structure (SMILES) = CC1CCC2C(C)C(OC(=O)CCC(=O)N3CCN(CC(=O)Nc4ccc([N+](=O)[O-])c(C(F)(F)F)c4)CC3)OC3OC4(C)CCC1C32OO4 (stereo not drawn); cell line = MCF-10A; assay = cell growth or viability, CCK-8; IC50 = 10.7 µM
Structure (SMILES) = Cc1cc(Nc2nc(C[C@@]3(C(=O)O)CCN(Cc4cccc(Cl)c4F)[C@H](C)C3)cc(C)c2F)[nH]n1; cell line = SW756; assay = cell growth or viability, ATP luminescence; conditions = 5 days; IC50 = > 10 µM
Structure (SMILES) = CCC1=C(C)C2=C(c3ccc(C(=O)NCCNC(=O)c4ccc(P(=NC5=[O+][Ru-]([Cl])[n+]6ccccc65)(c5ccccc5)c5ccccc5)cc4)cc3)c3c(C)c(CC)c(C)n3[B-](F)(F)[N+]2=C1C.Cc1ccc(C(C)C)cc1.Cl; cell line = MCF-10A; assay = cell growth or viability, MTT; IC50 = 73 µM
Structure (SMILES) = Cc1cc(C)cc(COc2cc3c(cc2OCc2cc(C)cc(C)c2)C2CC(O)(Cc4cn(CCOCCOCCOCCOCC(=O)Nc5cccc6c5C(=O)N(C5CCC(=O)NC5=O)C6=O)nn4)CC(C)N2CC3)c1 (racemic); cell line = ASPC1; assay = cell growth or viability, MTT; IC50 = 1.05 µM
Structure (SMILES) = Cc1cc(Oc2nc(N3CC[C@@H](c4ccncc4)C3)ncc2F)[nH]n1; cell line = Ramos; assay = cell proliferation; test system = blood cancer; IC50 = 40.7 µM
Structure (SMILES) = CC(=O)[O][Pt]([NH2])([NH2])([Cl])([Cl])[O]C(=O)C(Cl)Cl; cell line = HCT-15; assay = cell growth or viability, MTT; conditions = 72 h; IC50 = 4.05 µM
Structure (SMILES) = CC(=O)N[C@H](C(=O)N[C@@H](CCCNC(=N)N)C(=O)N[C@@H](CCCCN)C(=O)N[C@@H](CCCNC(=N)N)C(=O)N[C@]1(C)CCCCCCC=CCCC[C@@](C)(C(=O)N[C@@H](CCCNC(=N)N)C(=O)N[C@@H](CCC(=O)O)C(=O)N[C@@H](CC(C)C)C(=O)N[C@H](C(=O)N[C@@H](CCC(=O)O)C(N)=O)C(C)C)NC(=O)[C@H](CCC(N)=O)NC(=O)[C@H](CC(C)C)NC(=O)[C@H](CC(C)C)NC(=O)[C@H](CCCNC(=N)N)NC(=O)[C@H](CCCNC(=N)N)NC(=O)[C@H](CC(C)C)NC1=O)C(C)C; cell line = H1975 (EGFR L858R/T790M); assay = cell viability; conditions = 18 h, serum-free; IC50 = 2.24 µM
Structure (SMILES) = Cc1ccc(C(C)C)cc1.Cc1ccc(C(C)C)cc1.Cc1ccc(C(C)C)cc1.Cc1ccc(C(C)C)cc1.O=S(=O)(O)C(F)(F)F.O=S(=O)(O)C(F)(F)F.O=S(=O)(O)C(F)(F)F.O=S(=O)(O)C(F)(F)F.c1ccc2c3c4ccccc4c(c2c1)-c1cn(nn1)-c1cc[n+](cc1)[Ru-]1[O]c2ccc4c5c(ccc(c25)=[O+]1)=[O+][Ru-]([O]4)[n+]1ccc(cc1)-n1cc(nn1)-c1c2ccccc2c(c2ccccc12)-c1cn(nn1)-c1cc[n+](cc1)[Ru-]1[O]c2ccc4c5c(ccc(c25)=[O+]1)=[O+][Ru-]([O]4)[n+]1ccc(cc1)-n1cc-3nn1; cell line = HCT-15; assay = cell growth, MTT; conditions = 24 h, after 24 h preincubation in medium at 37 °C; IC50 = 7.6 ± 0.16 µM
Structure (SMILES) = CC(=O)N[C@H](C(=O)N[C@@H](CCCNC(=N)N)C(=O)N[C@@H](CCCCN)C(=O)N[C@@H](CCCNC(=N)N)C(=O)N[C@H](C(=O)N[C@@]1(C)CCCC=CCCC[C@@](C)(C(=O)N[C@@H](CCC(N)=O)C(=O)N[C@@H](CCC(=O)O)C(=O)N[C@@H](CCCNC(=N)N)C(=O)N[C@@H](CCC(=O)O)C(=O)N[C@@H](CC(C)C)C(=O)N[C@H](C(=O)N[C@@H](CCC(=O)O)C(N)=O)C(C)C)NC(=O)[C@H](CC(C)C)NC(=O)[C@H](CCCNC(=N)N)NC(=O)[C@H](CCCNC(=N)N)NC1=O)[C@@H](C)O)C(C)C; cell line = H2030 (wild-type EGFR); assay = cell viability, ATP luminescence; conditions = 18 h; IC50 = > 50 µM
Structure (SMILES) = CC(C)C12OC1C1OC13C1(C)CCC4=C(COC4=O)C1CC1OC13C2OC(=O)CCCOC1OC(CO)C(O)C(O)C1O (stereo not drawn); cell line = SK-MEL3; assay = cell growth or viability, XTT; conditions = 47 h; IC50 = 0.44 µM
Structure (SMILES) = O=C(Nc1cccs1)c1cccnc1; cell line = HCT-116 Cas9-expressing; assay = cell viability; test system = Nam-free DMEM 10% FBS; IC50 = 0.0208 µM
Structure (SMILES) = CC(=O)N[C@H](C(=O)N[C@@H](CCCNC(=N)N)C(=O)N[C@@H](CCCCN)C(=O)N[C@@H](CCCNC(=N)N)C(=O)N[C@@]1(C)CCCC=CCCC[C@@](C)(C(=O)N[C@@H](CC(C)C)C(=O)N[C@@H](CCC(N)=O)C(=O)N[C@@H](CCC(=O)O)C(=O)N[C@@H](CCCNC(=N)N)C(=O)N[C@@H](CCC(=O)O)C(=O)N[C@@H](CC(C)C)C(=O)N[C@H](C(=O)N[C@@H](CCC(=O)O)C(N)=O)C(C)C)NC(=O)[C@H](CCCNC(=N)N)NC(=O)[C@H](CCCNC(=N)N)NC(=O)[C@H](CC(C)C)NC1=O)C(C)C; cell line = SK-N-MC (no EGFR or ErbB2-4); assay = cell viability, ATP luminescence; conditions = 18 h; IC50 = ~80 µM
Structure (SMILES) = CC[C@H](C)[C@@H]1NC(=O)[C@@H]2CCCN2C(=O)[C@H](C)NC(=O)[C@H](CC(C)C)NC(=O)[C@@H]2CCCN2C(=O)[C@H](C)NC(=O)[C@@H]2CSSC[C@H](NC(=O)[C@H](C)NC(=O)[C@H](C)NC(=O)[C@H](Cc3ccc(O)cc3)NC(=O)[C@@H]3CCCN3C(=O)CNC(=O)[C@H](Cc3c[nH]c4ccccc34)NC1=O)C(=O)N[C@@H](CC(C)C)C(=O)N[C@@H](CO)C(=O)N[C@@H](C)C(=O)N[C@H]1CSSC[C@H](NC(=O)[C@H](C(C)C)NC(=O)[C@@H]3CCCN3C(=O)CNC(=O)CNC(=O)CNC(=O)[C@H](C)NC(=O)[C@H](C)NC(=O)[C@H](CC(C)C)NC1=O)C(=O)N[C@@H](CC(C)C)C(=O)N[C@@H](C)C(=O)N[C@@H](C(C)C)C(=O)N2; cell line = U-87 MG; assay = cell growth; IC50 = > 128 µg/mL

For quick reference, copied from above:
Structure (SMILES) = CC(C)C12OC1C1OC13C1(C)CCC4=C(COC4=O)C1CC1OC13C2OC(=O)CCCOC1OC(CO)C(O)C(O)C1O (stereo not drawn); cell line = SK-MEL3; assay = cell growth or viability, XTT; conditions = 47 h; IC50 = 0.44 µM
Structure (SMILES) = O=C(Nc1cccs1)c1cccnc1; cell line = HCT-116 Cas9-expressing; assay = cell viability; test system = Nam-free DMEM 10% FBS; IC50 = 0.0208 µM
